Assay results from different studies.
Every numbered part comes from another study and shows a few of its results, in no order.

Set 1 — technique: RNA Bind-n-Seq; form: RNA; medium: in vitro; concentration: 200 nM; notes: whole 134-nt RNA, ends assumed; with: 150 mM KCl; reference: input library; reading: higher = stronger binding
Target: Fragile X messenger ribonucleoprotein 1, C-terminal low-complexity region (Fmr1, Mus musculus, UniProt P35922)
With `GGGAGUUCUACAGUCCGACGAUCAAGUCCUGUGCUACACAUCGUAUGUACCGAAUCGGGGUUUGGGGUUUGGUUUGGGGAAAGUAUUAUGUUACGCCGUUCGGAUCUGCACUUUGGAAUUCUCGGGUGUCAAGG` the log2 enrichment was 0.213.
`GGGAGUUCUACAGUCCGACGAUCCACAGACAACACGCACCCACACAGACACAGAGGGAAGGGGUUGGGAUGGGGACAGGGUGCACUGCAGGGCGGGGUAGGACCCCAGCCCCUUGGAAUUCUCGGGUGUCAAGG` gave a log2 enrichment of 1.29.
With `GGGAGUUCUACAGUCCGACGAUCAGUCCUGUGCUACACAUCGUAUGUACCGAAUCGGUUUUUGGUUUUUGGAAAAAAAGGAAAGUAUUAUGUUACGCCGUUCGGAUCUGCACUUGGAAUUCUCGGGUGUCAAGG` the log2 enrichment was -1.02.
For `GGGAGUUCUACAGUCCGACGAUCGCAGGAAGUAAAAACAAAUGGAAAUGCUUCGGAUAGUGGCAGGGGUGGGGGUUGCUAAGGAAAGGGUGGGAUGGGAGUAGGUAAAGAGUUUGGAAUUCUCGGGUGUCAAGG`, the log2 enrichment was 0.0242.
For `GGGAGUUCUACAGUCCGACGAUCAAGUCCUGUGCUACACAUCGUAUGUACCGAAUCGGGGUGGGGAGGGGUUUUUGGGGAAAGUAUUAUGUUACGCCGUUCGGAUCUGCACUUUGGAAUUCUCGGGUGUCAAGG`, the log2 enrichment was 1.08.
`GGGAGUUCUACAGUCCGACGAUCCAAGUCCUGUGCUACACAUCGUAUGUACCGAAUCGGGAGGGAAAGGGAAAAAGGGAAAGUAUUAUGUUACGCCGUUCGGAUCUGCACUUCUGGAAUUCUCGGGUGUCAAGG` has a log2 enrichment of 0.582.
With `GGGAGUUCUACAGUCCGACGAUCCCUGUGCUACACAUCGUAUGUACCGAAUCGGGGAAAAAAAGGAAAAAAAGGGAAAAAAAGGAAAGUAUUAUGUUACGCCGUUCGGAUCUGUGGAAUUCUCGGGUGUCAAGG` the log2 enrichment was -0.799.
The log2 enrichment of `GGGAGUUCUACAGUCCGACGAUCGCAGGAAGUAAAAACAAAUGGAAAUGCUUCGGAUAGUGGCAGGGGUGGGGGUUGCUAAGGAAAAAAUGGGAUGGGAGUGGGUAAAGAGUUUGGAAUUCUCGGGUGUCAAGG` is reported as 0.214.
`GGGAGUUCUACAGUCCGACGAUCCCUGUGCUACACAUCGUAUGUACCGAAUCAAAUUUUUUUAAACCCCCAAAUUUUUUUAAAAAAGUAUUAUGUUACGCCGUUCGGAUCUGCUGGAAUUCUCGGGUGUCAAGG` has a log2 enrichment of 0.0532.
The log2 enrichment of `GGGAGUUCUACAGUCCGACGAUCGUCCUGUGCUACACAUCGUAUGUACCGAAUCGGGGUUUUUGGGGUGGGGUUUUUGGGGAAAGUAUUAUGUUACGCCGUUCGGAUCUGCACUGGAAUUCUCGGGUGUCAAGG` is reported as 0.762.

Set 2 — technique: RNA Bind-n-Seq; form: RNA; medium: in vitro; concentration: 365 nM; reference: no-protein control; reading: higher = stronger binding
Target: RNA binding protein fox-1 homolog 2, RRM domain, GST-SBP tag (RBFOX2, Homo sapiens, UniProt O43251-10, residues 100-194)
Notes: natural RNA segment, single round, ends assumed
Target sequence (chain): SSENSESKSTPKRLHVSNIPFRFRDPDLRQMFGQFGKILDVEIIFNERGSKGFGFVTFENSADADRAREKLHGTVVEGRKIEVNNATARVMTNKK
Under “RBNS enrichment (R)”, `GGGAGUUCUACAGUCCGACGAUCUGAAAAUUAGGCCAAAUGAUUUUAUUCCAAAUGUAAUUUAAUUGCUGCUGUUGGGCUUUCGUUUCUGCAAUUCAGCUUUGUUUAAAGUGAUUUGAAAAAUACUCAUUCUGUGGAAUUCUCGGGUGCCAA` is recorded as 0.424.
`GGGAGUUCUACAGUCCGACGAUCUGGGCCUCGCCUCUGUCCUCAGGUCCUCUCAGAGGCAGAUACCUAGGGGAGCUGCUGCUGCCUGCUCAUUCUAGCUUCCGAUUCCAUUCCCAGCCCCUGCGUUAAGGUCCUGGAAUUCUCGGGUGCCAA` — result for “RBNS enrichment (R)”: 0.416.
Under “RBNS enrichment (R)”, `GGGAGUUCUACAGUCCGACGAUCGUAGCUGGGUAAUCAAAAAUGUUUAGUCAUUGAUUCAAUGUGAACGAUUACGGUCUUUAUGACCAAGAGUCUGAAAAUCUUUUUGUUAUGCUGUUUAGUAUUCGUUUGAUUGGAAUUCUCGGGUGCCAA` is recorded as 0.328.
`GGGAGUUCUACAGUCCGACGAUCUGCUGGUCUGGCAAACACACCUUUCUGCUUUGCCUUCACAAAAGUAAUGUGUUCCCUUUCCCACCCCUUGCCUGACCCUCAGGGAGUCAGCCUGCUUCCAUCCAUGGGUGUGGAAUUCUCGGGUGCCAA` — result for “RBNS enrichment (R)”: 1.7.
Under “RBNS enrichment (R)”, `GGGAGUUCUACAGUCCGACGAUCACUCACUUUGGGCCAGAGAGAGGUUACCUCACAGUGUGCUUCUGACGUCACAUUUCUCGGCCUCCGACAUUAUGACAUUCUGCAUCCUGGUGCCUGAAGGAAACUCUGGGUGGAAUUCUCGGGUGCCAA` is recorded as 1.87.
For `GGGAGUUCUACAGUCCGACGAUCUGCUGCGGGAGCUGAAGCCUGUCCUGUCCCAGGGUAACCUGCUUACAUCUGGACUUCAGAAUCUGGCACACAACAAAAGUGCCUGGCACCCACUGCUGCUGCCUUUCAUUUGGAAUUCUCGGGUGCCAA`, “RBNS enrichment (R)” read 0.349.
`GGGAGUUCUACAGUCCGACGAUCAAAGCCUAUCCUUAAAAAAUAAACCUGUUGAAAUGGGCUUUAAAGACAUCGAAAUAAUCACUUGUCAUGCAUUGACUGUAAAUGCAGAUAGAGAAAUAUGUCUUUGAAGCUGGAAUUCUCGGGUGCCAA` — result for “RBNS enrichment (R)”: 0.489.
`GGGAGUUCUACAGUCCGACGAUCAGGGUAUAACACAUGCUCCGAGGUGGGUGUGUCUCUGACCAUCUCAAGCACCCUAUCUUGUGUCCCUCACAAACAAGCUCUUGUCACUUCUUACCGAGUCCAUAGCUUCAUGGAAUUCUCGGGUGCCAA`: “RBNS enrichment (R)” 0.47.
`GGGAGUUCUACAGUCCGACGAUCCAUUUUUUUGUGUGAAGUAAAUUAAUCAACUAGAGAGGUGCAAAACGUUCUCAGUUGAUAUCUGAGUAUUGGGUGCAUUUGGUGGCUUAAAAGCAAAGCUUCCUAAAAAGUGGAAUUCUCGGGUGCCAA` — result for “RBNS enrichment (R)”: 0.486.
`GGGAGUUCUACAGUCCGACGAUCGAUCUCAGGCAUGCCUUCUAGAUUUGUUCCCUCUGAGGGGCAGGAAUGAACUGUAGAAAUGUUUUAAGGACCCAGAAACCCCAUAUGUCUCAUUCCAUGACUAUAGGUGAUGGAAUUCUCGGGUGCCAA` — result for “RBNS enrichment (R)”: 9.42.
`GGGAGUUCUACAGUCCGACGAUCUACAUUAGCUAAUACUAACCACAUAGAAUAUCAGACUUAGAUACGUGAAUAAGGAUCCUGUGGGCACUGCUGGGUCCACUCUGCAAAUGCCAAGACUAUCAAAGGAACGUUGGAAUUCUCGGGUGCCAA` — result for “RBNS enrichment (R)”: 0.372.
`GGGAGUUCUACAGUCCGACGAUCAAUUCAACAAUCUGAGAGAGAAAACUUAAUCCAAUGGCAGAGAAGCUUCUGAGUUUUAUAUUGUUUGCAUCCCAUUGCCCUCAAUAAAGAAAGUCCUUUUUUUAAGUUCUUGGAAUUCUCGGGUGCCAA` — result for “RBNS enrichment (R)”: 0.569.

Set 3 — technique: aptamer microarray, sandwich; form: DNA with 2'F-ANA; medium: in vitro; concentration: 200 nM; with: Cy3 exosite-II aptamer, 400 nM; reading: higher = stronger binding; oligonucleotide: GGTTGGTGTGGTTGG
Target: Prothrombin, mature alpha-thrombin (F2, Homo sapiens, UniProt P00734)
Notes: whole 15-mer aptamer, many near background
`2'F-ANA at 2 5 6 8 10 11 12 14`: “mean fluorescence intensity” 46.5 a.u.
Under “mean fluorescence intensity”, `2'F-ANA at 2 3 5 6 10 11 13 14 15` is recorded as 54.7 a.u.
Under “mean fluorescence intensity”, `2'F-ANA at 1 2 3 4 8 10 11 12 13 14` is recorded as 55.8 a.u.
`2'F-ANA at 1 4 7 9 13 14 15` — result for “mean fluorescence intensity”: 49.3 a.u.
`2'F-ANA at 4 7 8 9 10 11 12 13 15` — result for “mean fluorescence intensity”: 95.5 a.u.
`2'F-ANA at 3 5 11 12 13 14 15` — result for “mean fluorescence intensity”: 60.5 a.u.
Under “mean fluorescence intensity”, `2'F-ANA at 1 2 4 6 7 9 10 11 12 15` is recorded as 55.1 a.u.
`2'F-ANA at 1 5 6 8 9 13`: “mean fluorescence intensity” 48.2 a.u.
`2'F-ANA at 1 3 6 9 12 13`: “mean fluorescence intensity” 342 a.u.
`2'F-ANA at 1 10 13`: “mean fluorescence intensity” 65 a.u.
Under “mean fluorescence intensity”, `2'F-ANA at 1 6 12 14` is recorded as 67.3 a.u.
For `2'F-ANA at 1 2 7 8 10 11 12 13 15`, “mean fluorescence intensity” read 77.4 a.u.
Under “mean fluorescence intensity”, `2'F-ANA at 5 6 7 8 9 10 11 12 14` is recorded as 45.9 a.u.
`2'F-ANA at 1 3 4 5 6 8 11 12 14` — result for “mean fluorescence intensity”: 86.3 a.u.
For `2'F-ANA at 1 5 6 8 10 13 14 15`, “mean fluorescence intensity” read 48.9 a.u.
For `2'F-ANA at 2 5 6 7 9 12 13 15`, “mean fluorescence intensity” read 115 a.u.

Set 4 — technique: universal PBM; form: double-stranded DNA, one strand shown; medium: in vitro; concentration: 600 nM; reading: higher = stronger binding
Target: Sal-like protein 4, full length isoform A (SALL4, Homo sapiens, UniProt Q9UJQ4, residues 1-1053)
Chain of UniProt Q9UJQ4 (whole entry, looked up): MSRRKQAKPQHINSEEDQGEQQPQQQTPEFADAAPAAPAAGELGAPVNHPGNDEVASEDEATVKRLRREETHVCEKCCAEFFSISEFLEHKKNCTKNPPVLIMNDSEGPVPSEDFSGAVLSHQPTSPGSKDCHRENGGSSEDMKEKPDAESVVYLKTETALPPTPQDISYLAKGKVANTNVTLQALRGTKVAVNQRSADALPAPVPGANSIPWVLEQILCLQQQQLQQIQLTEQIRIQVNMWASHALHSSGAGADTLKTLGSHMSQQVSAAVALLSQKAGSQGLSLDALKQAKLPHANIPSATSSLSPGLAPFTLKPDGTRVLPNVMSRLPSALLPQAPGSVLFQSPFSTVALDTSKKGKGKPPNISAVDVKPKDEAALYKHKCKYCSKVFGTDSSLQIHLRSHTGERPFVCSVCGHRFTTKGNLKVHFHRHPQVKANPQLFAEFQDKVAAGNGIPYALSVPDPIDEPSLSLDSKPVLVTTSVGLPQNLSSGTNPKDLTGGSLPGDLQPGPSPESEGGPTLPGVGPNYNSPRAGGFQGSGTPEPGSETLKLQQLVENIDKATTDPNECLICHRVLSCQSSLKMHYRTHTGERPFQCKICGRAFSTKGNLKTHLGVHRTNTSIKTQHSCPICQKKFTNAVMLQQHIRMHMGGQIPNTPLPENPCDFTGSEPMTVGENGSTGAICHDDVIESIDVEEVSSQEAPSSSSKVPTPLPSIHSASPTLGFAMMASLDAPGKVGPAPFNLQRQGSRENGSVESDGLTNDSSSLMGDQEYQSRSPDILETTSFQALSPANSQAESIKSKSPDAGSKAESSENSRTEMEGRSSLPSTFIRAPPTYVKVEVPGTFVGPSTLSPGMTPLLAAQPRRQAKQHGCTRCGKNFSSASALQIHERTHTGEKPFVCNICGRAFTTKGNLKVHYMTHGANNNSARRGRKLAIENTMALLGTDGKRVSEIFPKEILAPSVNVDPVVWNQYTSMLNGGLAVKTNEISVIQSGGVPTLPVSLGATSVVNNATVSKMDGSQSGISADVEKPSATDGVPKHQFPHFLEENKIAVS
Notes: 8-mer, flanks averaged, mean of replicates
With `GTTCTCGA` the E-score was 0.0317.
`ATACGGCG` has an E-score of -0.0773.
`ATAAAAGA` has an E-score of 0.258.
The E-score of `CCCGGAGC` is reported as -0.33.
With `GATTGAAC` the E-score was 0.0185.
`CCCGGATC` gave an E-score of -0.262.
`GGATCAGA` gave an E-score of -0.0649.
For `TATCCAAA`, the E-score was 0.228.
`ATACACCA` gave an E-score of 0.0379.
The E-score of `GAACAAAA` is reported as 0.219.
`GTCTGCAA` has an E-score of -0.046.
The E-score of `CCGGGCGA` is reported as -0.308.
`GCGGAGGA` gave an E-score of -0.23.
With `CGAGTAAC` the E-score was 0.0998.
With `AATGACCT` the E-score was 0.129.
`GCGGGGTA` has an E-score of -0.225.
The E-score of `TCGCATCA` is reported as 0.0151.
`GAATAGAC` has an E-score of 0.0399.
`TTTAGAAA` has an E-score of 0.292.
With `CCCCCAAA` the E-score was -0.0624.
For `ATCCGATG`, the E-score was -0.00775.
For `CATCTTGC`, the E-score was -0.0456.
For `AGTAATTA`, the E-score was 0.36.

Some of these lines once more (set 4):
With `GTTCTCGA` the E-score was 0.0317.
`ATACGGCG` has an E-score of -0.0773.
For `CATCTTGC`, the E-score was -0.0456.
`TTTAGAAA` has an E-score of 0.292.
`GGATCAGA` gave an E-score of -0.0649.
With `CGAGTAAC` the E-score was 0.0998.
`GCGGAGGA` gave an E-score of -0.23.
`ATAAAAGA` has an E-score of 0.258.
`GCGGGGTA` has an E-score of -0.225.
